Published values pooled from the literature.
Numbered parts are unrelated; each lists some results of a single study.

Block 1
Target: Replicase polyprotein 1ab, nsp13 helicase (rep, Severe acute respiratory syndrome coronavirus 2, UniProt P0DTD1)
Action: inhibitor
Concentration: 20 µM
Endpoint: inhibition
CC(=O)OCC(=O)[C@@]1(O)CC[C@H]2[C@@H]3CCC4=CC(=O)C=C[C@]4(C)[C@@]3(Cl)[C@@H](Cl)C[C@@]21C: 5.23%
CCOC(=O)[N-]c1c[n+](N2CCOCC2)no1: -4.25%
CC(C)NC(=N)NC(=N)Nc1ccc(Cl)cc1: 2.15%
CCOC(=O)c1ccccc1OC(=O)CCCCCCCC(=O)Oc1ccccc1C(=O)OCC: -6.82%
CC1(C)CCC(C)(C)c2cc(C#Cc3ccc(C(=O)O)cc3)ccc21: 0.58%
O=C(O)c1cc2occc2[nH]1: 0.36%
CC[C@@H]1C(=O)N(C)c2cnc(Nc3ccc(C(=O)N[C@H]4CC[C@H](N5CCN(CC6CC6)CC5)CC4)cc3OC)nc2N1C(C)C: 14.5%
C/C=C/C=C/C(=O)O: 4.69%
O=C(Nc1cc(C(F)(F)F)cc(C(F)(F)F)c1)c1cc(Cl)ccc1O: -7.18%
c1ccc2sc(N3CCN(Cc4ccc5c(c4)OCO5)CC3)nc2c1: 0.37%
N[C@@H](C(=O)O)c1nn[nH]n1 (racemic): 2.99%
CCOc1nc2cccc(C(=O)O)c2n1Cc1ccc(-c2ccccc2-c2nnn[nH]2)cc1: 3.17%
O=C1N=C(N2CCOCC2)CN1c1ccc(Cl)cc1: 6.76%
CN1[C@@H]2CC[C@H]1CC(OC(c1ccccc1)c1ccc(Cl)cc1)C2 (some centres unmarked): 2.04%
C/C(=C\CNc1ncnc2nc[nH]c12)CO: 0.68%
CC(=O)O[C@H]1C[C@@H]2CC[C@@H]3[C@H](CC[C@@]4(C)[C@H]3C[C@H](N3CC[N+](C)(C)CC3)[C@@H]4OC(C)=O)[C@@]2(C)C[C@@H]1N1CC[N+](C)(C)CC1: 19.5%
CCCCC(=O)O[C@]1(C(=O)CO)CC[C@H]2[C@@H]3CCC4=CC(=O)CC[C@]4(C)[C@H]3[C@@H](O)C[C@@]21C: -2.37%
CC(C)n1nnc2cc(C(=O)O)ccc21: 5.54%
N[C@H](C(=O)O)c1ccc(O)cc1: -3.46%
COC(=O)CCC(=O)CN: -0.81%
Nc1ccc(-c2ccc3ncc4ccc(=O)n(-c5cccc(C(F)(F)F)c5)c4c3c2)cn1: 9.43%
CC(Oc1c(Cl)cccc1Cl)C1=NCCN1 (centres unmarked): 7.73%
OC[C@@H](O)[C@@H](O)CO: -10.3%
C[C@@H]1[C@H](O)[C@@H](C)/C=C/C=C/CC/C=C/C=C/C=C/C=C/[C@H](O[C@@H]2O[C@H](C)[C@@H](O)[C@H](N)[C@@H]2O)C[C@@H]2O[C@](O)(C[C@@H](O)[C@H](O)CC[C@@H](O)C[C@@H](O)C[C@@H](O)CC(=O)O[C@H]1C)C[C@H](O)[C@H]2C(=O)O: 6.67%
O[C@@H]1CCCC[C@H]1N1CCC(c2ccccc2)CC1 (racemic): -2.09%

Block 2
Target: Interferon regulatory factor 7, full length, phosphomimetic (IRF7, Homo sapiens, UniProt Q92985, residues 1-503, S101K/S471D/S472D/S475D/S476D/S477D/S483D/S484D/S487D)
UniProt Q92985, sequence (whole entry, unmodified, looked up): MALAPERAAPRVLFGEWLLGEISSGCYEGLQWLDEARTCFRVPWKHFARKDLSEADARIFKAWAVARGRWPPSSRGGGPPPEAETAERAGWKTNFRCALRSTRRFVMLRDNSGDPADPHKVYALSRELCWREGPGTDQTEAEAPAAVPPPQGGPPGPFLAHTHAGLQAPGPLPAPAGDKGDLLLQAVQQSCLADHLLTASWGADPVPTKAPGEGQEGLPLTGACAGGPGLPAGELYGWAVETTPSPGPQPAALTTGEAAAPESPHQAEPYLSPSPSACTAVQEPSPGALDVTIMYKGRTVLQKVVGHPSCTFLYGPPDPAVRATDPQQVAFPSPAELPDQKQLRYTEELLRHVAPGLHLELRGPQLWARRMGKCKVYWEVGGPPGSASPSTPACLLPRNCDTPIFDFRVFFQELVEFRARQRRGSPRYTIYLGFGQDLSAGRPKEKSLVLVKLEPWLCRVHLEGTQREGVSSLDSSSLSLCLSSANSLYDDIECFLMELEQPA
Technique: protein-binding microarray
Form: double-stranded DNA, one strand shown
Matrix: in vitro
Concentration: 250 nM
Setting: 60-bp whole probe
Added: salmon DNA 0.4 mg/ml
Baseline: random background probes
Reading: higher = stronger binding
Endpoint: log fluorescence
Shared flanks, not repeated: GCCTAGCAC … GTCTTGATTCGCTTGACGCTGCTG
TTAGATTTCGACACTGGGTTAGTGCTA: 0.283 z-score
AGAGTGCTCATGCTTCTTAGGGTGCTA: -0.876 z-score
TCAGGGCTCTTCTCTGAAACTGTGCTA: -0.325 z-score
TTACATATCGGGACTGGATTAGTGCTA: 0.111 z-score
TTACGTTTCGGGTATCGGTTAGTGCTA: 3.83 z-score
GACGGAATCGGGTATCGGGACGTGCTA: 0.109 z-score
GACGATCTCAGTATCGTGACGTGCTAG: -0.113 z-score
ACAACTAGGGAATTTAGAAAAGTGCTA: 0.127 z-score

Block 3
Target: Centromere-binding protein 1, full length, N-terminal tag (CBF1, Saccharomyces cerevisiae, UniProt P17106, residues 1-351)
UniProt P17106, sequence (whole entry, looked up): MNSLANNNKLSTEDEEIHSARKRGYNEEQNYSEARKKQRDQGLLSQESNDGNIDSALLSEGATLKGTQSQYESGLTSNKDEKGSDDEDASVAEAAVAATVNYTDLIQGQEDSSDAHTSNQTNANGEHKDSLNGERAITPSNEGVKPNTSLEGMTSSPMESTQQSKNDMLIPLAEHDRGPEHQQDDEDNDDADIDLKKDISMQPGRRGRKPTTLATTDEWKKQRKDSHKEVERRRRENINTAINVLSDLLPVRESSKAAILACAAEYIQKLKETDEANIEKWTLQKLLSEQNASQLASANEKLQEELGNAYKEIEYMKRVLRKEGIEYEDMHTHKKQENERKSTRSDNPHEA
Technique: protein-binding microarray
Form: double-stranded DNA, one strand shown
Matrix: in vitro
Concentration: 0.8 µM
Setting: whole 60-bp probe, no competitor
Reading: higher = stronger binding
Endpoint: fluorescence intensity
Shared flanks, not repeated: … GTCTTGATTCGCTTGACGCTGCTG
GAAAGCAACAACTGTCACGATTGACCTGATGCATAG: 536 a.u.
GAAGTTTTCGTCGTGCATCAGGAACGATCTTCTTAG: 554 a.u.
GAAAAAAGTTTTCTTCTGATGTTAAAGTGTGTGTAG: 523 a.u.
GAAATTATGTATTCTTGCGTGCATCTGCAAATCTAG: 538 a.u.
CTAAAATGAGTCACGCACGCACAATCACGATTGTTC: 2360 a.u.
GAAGTTTTTATGCTAATCGTGCTAGCTGATAATTAG: 540 a.u.
GAAGGGATGTGCTCCCACGTAATGCATTGTGCATAG: 465 a.u.
CTATTCGTTAAACGTGATTTAGCTATCGGAACCTTC: 1510 a.u.

Block 4
Target: Replicase polyprotein 1ab, main protease (rep, Severe acute respiratory syndrome coronavirus 2, UniProt P0DTD1)
Read-out: enzyme activity
Action: inhibitor
Concentration: 20 µM
Setting: hit confirmation, with DTT
Endpoint: inhibition
O=c1c(O)cccc2cc(O)c(O)c(O)c12: 98.7%
COc1cccc2c1C(=O)c1c(O)c3c(c(O)c1C2=O)C[C@@](O)(/C(CO)=N/NC(=O)CCCCCN1C(=O)C=CC1=O)C[C@@H]3O[C@H]1C[C@H](N)[C@H](O)[C@H](C)O1: -9.5%
Cc1ccc(S(=O)(=O)N[C@@H](Cc2ccccc2)C(=O)CCl)cc1: 99.2%
COc1ccc2nc(S)[nH]c2c1: 15.9%

Block 5
Cell line: HEK-293T-ACE2
Concentration: concentration not given
Baseline: vehicle
Endpoint: cell number
Cc1nc2c([nH]1)-c1ccccc1N(C(=O)c1ccc(NC(=O)c3ccccc3-c3ccccc3)cc1)CC2.Cl: 99.3%
CC(=O)OC(C)OC(=O)C(C)c1ccc(-c2ccccc2)c(F)c1 (centres unmarked): 102%
CN(C)CCc1c[nH]c2ccc(CS(=O)(=O)N3CCCC3)cc12.O=C(O)CC(O)C(=O)O: 99.2%

Block 6
Target: RNA binding protein fox-1 homolog 2, RRM domain, GST-SBP tag (RBFOX2, Homo sapiens, UniProt O43251-10, residues 100-194)
Technique: RNA Bind-n-Seq
Form: RNA
Matrix: in vitro
Concentration: 365 nM
Setting: natural RNA segment, single round, ends assumed
Baseline: no-protein control
Reading: higher = stronger binding
Endpoint: RBNS enrichment (R)
Shared flanks, not repeated: GGGAGUUCUACAGUCCGACGAUC … UGGAAUUCUCGGGUGCCAA
Residues (chain): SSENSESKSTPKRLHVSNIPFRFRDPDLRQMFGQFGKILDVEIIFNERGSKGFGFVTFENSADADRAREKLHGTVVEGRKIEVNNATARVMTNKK
UACAACUUCAAGUGCAUGCUCUCUGCAGCCAGCCCAGCCCAGCUGGUGGGAAGCGUCUGUCCGUUUACUCCAAGGUGGGGUCUUUGUGAGAGUGAGCUGUAGGUGUGCGG: 7.03
GGUGGGGCUUGUUUCCUGAAACCAUGAUGUACUUUUUCAUACAUGAGUCUGUCCAGAGUGCUUGCUACCGUGUUCGGAGUCUCGCUGCCUCCCUCCCGCGGGAGGUUUCU: 0.405
UUGGUCUUAGUUUUGAUCCUGUUGCAGCAAAAUCCUGCAGCAUCUUUCUCUCCAAUAAUGUUGCAACUCACCAAAACUAUUCUUGAAGAGGUCCAAGAACAUGUAUUAUC: 1.18
GACCCACCCAACGUCUCCAGUUCUUAUUGUUCUCCUUCCUUCCUUCUUUCCUUUCCCUUCUCACCUCUUUGCCUCCUUCCCUAAAAUUCGCUGUGGCCCUCGGGGUCAGA: 1.47
CUGCUCACAUCUGCCUGCAAGUCUUUCCAGUACUCCUGGGAUAUCCUGUAAUAGACUCGGGUCCUGUCCACGGCCCUGGCCGCCCACAAUCCAGCCCACAAAUCCACAUG: 0.297
UAGCGACAACAGAUUGGAUUUUAUGUUGACAUUUGUUUGGUUAUAGUGCAAUAUAUUUUGUAUGCAAACAGUUUCAAUAAAGUUUGAUCUUCCUCUGCUAAAUUGAUGUU: 0.345
UCUUUCACGUGUUGUGUCCAUAGCUUUAGUCUUCCUAAAUAAGAUCCACCCACACCUAAGUCACAGAAUUUCUAAGUUCCCCAACUACUCUCACACCCUUUUAAAGAUAA: 0.738
CCUUGGCCUCUCGAAGUGCUGGGAUUACAGGCGUGAGCCACCCGCCCGGCUAUCAGCACUGUUCUGAUUGCAGACGUUUCACAGCAUGUUUGGCUUUUGGUAAAUUCAAU: 12.4

A few entries again (block 3):
GAAGGGATGTGCTCCCACGTAATGCATTGTGCATAG: 465 a.u.
CTAAAATGAGTCACGCACGCACAATCACGATTGTTC: 2360 a.u.
GAAGTTTTCGTCGTGCATCAGGAACGATCTTCTTAG: 554 a.u.
GAAGTTTTTATGCTAATCGTGCTAGCTGATAATTAG: 540 a.u.
GAAAGCAACAACTGTCACGATTGACCTGATGCATAG: 536 a.u.
CTATTCGTTAAACGTGATTTAGCTATCGGAACCTTC: 1510 a.u.
